Results collected from several papers.
Protocols differ between the studies behind these lines. “And” joins repeats or separate records; there may be more than shown. Numbers after ± are the reported error.
TRPM8: Transient receptor potential cation channel subfamily M member 8 (TRPM8, Homo sapiens, UniProt Q7Z2W7)
NADH dehydrogenase [ubiquinone] iron-sulfur protein 7, mitochondrial/NADH dehydrogenase [ubiquinone] iron-sulfur protein 2, mitochondrial/MT-ND1: NADH dehydrogenase [ubiquinone] iron-sulfur protein 7, mitochondrial/NADH dehydrogenase [ubiquinone] iron-sulfur protein 2, mitochondrial/MT-ND1 (Homo sapiens, UniProt O75251+O75306+P03886)
GAP50: Glideosome-associated protein 50 (GAP50, Plasmodium falciparum, UniProt Q8I2X3)
FFAR4: Free fatty acid receptor 4 (FFAR4, Homo sapiens, UniProt Q5NUL3)
CXCR4: C-X-C chemokine receptor type 4 (CXCR4, Homo sapiens, UniProt P61073)

SMILES | target or system | test | system | setting | scale | measurement | result
NC(Cc1cc(I)c(Oc2cc(I)c(O)c(I)c2)c(I)c1)C(=O)O (stereo not shown) | Thyroxine 5-deiodinase (DIO3, Homo sapiens, UniProt P55073, C168G) | deiodination, substrate | – | concentration not given | baseline: T3 | activity relative to T3 | 19.1%
CC(C)NCC(O)c1ccc(O)c(O)c1 (stereo not shown) | – | – | ventricular cardiomyocytes, C57BL/6 mouse | dose not given, 0.408 s | – | sarcomere length | 1.72 µm
CC(C)[C@@H]1CC[C@@H](C)C[C@H]1O | TRPM8 | 19F CPMG relaxation dispersion | – | concentration not given, 25 °C, together with: saturating ligand | – | exchange rate kex | 4000 ± 3000 s⁻¹
NCCCS(=O)(=O)O | Sodium- and chloride-dependent taurine transporter (SLC6A6, Homo sapiens, UniProt P31641, G62A) | binding, microscale thermophoresis | – | 3.91 µM, room temperature, together with: 50 nM labelled protein | higher = more binding | normalised MST signal | -0.0863
Cc1cc2c(c(=O)[nH]1)C(=O)O/C2=C\c1ccccc1OCC1CC1 | Dual specificity calcium/calmodulin-dependent 3',5'-cyclic nucleotide phosphodiesterase 1C, isoform PDE1C2 (PDE1C, Homo sapiens, UniProt Q14123) | enzyme activity, inhibitor | – | together with: 3H-cGMP substrate | – | ligand efficiency | 0.38
NC(=O)NOCCCCCCCCCC[P+](c1ccccc1)(c1ccccc1)c1ccccc1.O=C([O-])C(F)(F)F | NADH dehydrogenase [ubiquinone] iron-sulfur protein 7, mitochondrial/NADH dehydrogenase [ubiquinone] iron-sulfur protein 2, mitochondrial/MT-ND1 | complex I-dependent respiration, Seahorse XF96 | HCT-116 | 15 µM, 24 h | baseline: control | oxygen consumption rate | 21.1 ± 4.73%
CN(C)c1ccc2nc3ccc(=[N+](C)C)cc-3sc2c1 | Microtubule-associated protein tau (MAPT, Homo sapiens, UniProt P10636) | fibril formation, ThT fluorescence | – | 5-fold of tau, at plateau, together with: wild-type tau 10 µM, heparin | baseline: untreated | ThT fluorescence | 2 ± 6%
Cc1cc(NC(=O)C2CCc3cc(F)ccc3O2)n(C2CCS(=O)(=O)C2)n1 (stereo not shown) | Kir3.1/Kir3.2 (Homo sapiens, UniProt P48051+P48549) | thallium flux, activator | HEK293 | – | baseline: standard compound | Emax | 43%
O=C(COc1ccc(C2CCC(=O)NC2=O)cc1)NCCCCCCN1CCc2c(c3ccccc3n2Cc2ccc(C(=O)NO)cc2)C1 (stereo not shown) | Polyamine deacetylase HDAC10 (HDAC10, Homo sapiens, UniProt Q969S8) | degrader, western blot | MM1.S | 5 µM, 24 h | – | degradation | 41%
NC(=O)NOCCCCCCCCCCCCCCCCCCCC[P+](c1ccccc1)(c1ccccc1)c1ccccc1.O=C([O-])C(F)(F)F | NADH dehydrogenase [ubiquinone] iron-sulfur protein 7, mitochondrial/NADH dehydrogenase [ubiquinone] iron-sulfur protein 2, mitochondrial/MT-ND1 | complex I-dependent respiration, Seahorse XF96 | HCT-116 | 1 µM, 24 h | baseline: control | oxygen consumption rate | 35.9 ± 4.82%
O=c1nc(SCc2cc(F)cc(C(F)(F)F)c2)nc(SCc2ccc3nc(OCCN4CCOCC4)ccc3c2)[nH]1 | DNA topoisomerase 2-alpha (TOP2A, Homo sapiens, UniProt P11388) | DNA cleavage | – | 125 µM | – | mean linear DNA | 0%
Nc1ncnc2c1ncn2[C@@H]1O[C@H](COP(=O)(O)CP(=O)(O)OP(=O)(O)O)[C@@H](O)[C@H]1O | P2X purinoceptor 1 (P2RX1, Homo sapiens, UniProt P51575) | saturation binding | HEK293 | 52 nM | – | specific binding | 7300 CCPM and 7510 CCPM and 2960 CCPM and 8550 CCPM and 5290 CCPM
CC[C@@H]1[C@H](F)C(=O)N[C@@H]1COc1nccc2cc(C(N)=O)c(OC)cc12 | Mitogen-activated protein kinase kinase kinase 11 (MAP3K11, Homo sapiens, UniProt Q16584) | ATP-site probe binding, ActivX profiling, measured: MLK3 | THP-1 cell lysate | 0.01 mM, Lys1 site | – | inhibition | 3.8%
Oc1cccc(C(Nc2nccs2)c2ccc3cccnc3c2O)c1 (stereo not shown) | GAP50 | surface plasmon resonance | – | – | – | kon | 445 M⁻¹ s⁻¹
COc1cc(/C=C/c2ccc(O)cc2)cc(OC)c1 | O-methyltransferase (Sorghum bicolor, UniProt A0A1B6PFV1) | – | – | concentration not given, together with: SAH+ | – | ΔG of binding | -9.85 kcal/mol
CCCCC(CC)CNc1cc(=O)[nH]c(=O)[nH]1 (racemic) | FFAR4 | β-arrestin recruitment | CHO | 10 µM | baseline: 30 µM TUG-891 | agonist effect | -1%
NC(=O)NOCCCCCCCCCCCC[P+](c1ccccc1)(c1ccccc1)c1ccccc1.O=C([O-])C(F)(F)F | NADH dehydrogenase [ubiquinone] iron-sulfur protein 7, mitochondrial/NADH dehydrogenase [ubiquinone] iron-sulfur protein 2, mitochondrial/MT-ND1 | complex I-dependent respiration, Seahorse XF96 | HCT-116 | 10 µM, 24 h | baseline: control | oxygen consumption rate | 11 ± 1.09%
CCCCCCCCN(C)c1cc(=O)[nH]c(=O)[nH]1 | FFAR4 | antagonist, β-arrestin recruitment | CHO cells | 10 µM | – | inhibition | 22 ± 2%
NCc1ccc(C(F)(F)F)cc1 | Amine oxidase [flavin-containing] A (Maoa, Rattus norvegicus, UniProt P21396) | kcat/Km ascending limb free E S, substrate | – | pH 6.5-9.5 | – | pKa1 | 7.8 ± 0.1

SMILES | target or system | test | system | setting | scale | measurement | result
O=C(COP(=O)(O)O)[C@@H](O)[C@H](O)[C@H](O)COP(=O)(O)O | Eukaryotic translation initiation factor 3 subunit H (Homo sapiens, UniProt O15372) | thermal proteome profiling, measured: EIF3H | HepG2 cell lysate | concentration not given, 57 over 37 °C | baseline: compound over control | thermal stability ratio | 0.5 and 0.393 and 0.594
Cc1ccc(CCNc2cc(=O)[nH]c(=O)[nH]2)cc1 | FFAR4 | antagonist, β-arrestin recruitment | CHO cells | 10 µM | – | inhibition | 15 ± 6%
N#Cc1ccc2c(c1)[C@H]1CCCN(C(=O)c3ccc4[nH]cnc4c3)[C@H]1C2 | – | – | human | 40 mg, day 15 | baseline: baseline | ACTH level change | 3.1 pmol/L
CCN1CCN(c2cc(N3CCN(CC)CC3)nc(NCCNc3ccnc4cc(Cl)ccc34)n2)CC1 | Nuclear receptor subfamily 4 group A member 2, LBD (Homo sapiens, UniProt P43354) | reporter gene, Gal4 hybrid reporter | – | 10 µM | baseline: vehicle | activation | 1.43 ± 0.06 fold
Cn1cc(-c2ccc(-c3cncc(Cl)c3N3CCC4(CCNC4=O)CC3)cc2)cn1 | COLO 205 | gene expression, microarray, measured: GDF15 (PDF) mRNA | – | concentration not given, 2 h | baseline: untreated cells | log2 fold change | 2.15
c1ccc(C(NCc2cccnc2)(c2ccccc2)c2ccccc2)cc1 | Potassium voltage-gated channel subfamily KQT member 1 (KCNQ1, Homo sapiens, UniProt P51787) | channel activation | – | 100 pM | – | G-V slope factor | 13 ± 10 mV
CC(C)NCCCC[C@H](NC(=O)[C@H]1CCC(=O)N[C@@H](Cc2ccccc2)C(=O)N[C@@H](Cc2ccc(O)cc2)C(=O)N[C@@H](CCCCNC(C)C)C(=O)N[C@H](CCCNC(=N)N)C(=O)N[C@@H](Cc2ccc3ccccc3c2)C(=O)NCC(=O)N1)C(N)=O | CXCR4 | – | U87.CD4.CXCR4 cells | 75 µM, 1 h, together with: [18F]AlF-NOTA-SC | – | total cellular uptake | 1.46 ± 0.02%
C=C1CN(S(=O)(=O)c2ccc(C)cc2)CCCN(Cc2ccccc2)CCCN(S(=O)(=O)c2ccc(C)cc2)C1 | Protein transport protein Sec61 subunit alpha isoform 1 (Homo sapiens, UniProt P61619) | Sec61-dependent translocation, inhibitor, measured: CD4 signal peptide-FLuc reporter | HEK293 | 0.013 mM, 6 h | – | FLuc/RLuc ratio | 0.994
CCN1CCC[C@H]1CNC(=O)c1c(O)c(Cl)cc(Cl)c1OC | G-protein coupled receptor family C group 5 member B (GPRC5B, Homo sapiens, UniProt Q9NZH0) | β-arrestin recruitment, TANGO luminescence, measured: GPRC5B | – | concentration not given | baseline: basal luminescence | log2 fold change | 0.271
CC(C)(C)c1nc2c3cc[nH]c(=O)c3c3cc(F)ccc3c2[nH]1 | TRPM8 | antagonist | HEK293 | 5 µM | baseline: control | remaining activity | 84.8 ± 6.73%
Cc1ccc(C(=O)Nc2ccc3ccccc3c2)o1 | Otop1 (Mus musculus, UniProt Q80VM9) | acid-evoked current, whole-cell patch-clamp | HEK293T | concentration not given, pH 5.5, preincubated before acid | – | activation time constant | 462 ms and 569 ms and 378 ms and 582 ms and 309 ms
O=C(NCc1ccc(CNS(=O)(=O)c2ccccc2)cc1)c1cccnc1 | CXCR4 | binding, inhibitor, competitive binding | MDA-MB-231 | together with: biotinylated TN14003 | – | EC | 10 nM
CCc1nc2ccccc2n1C[C@H](O)COc1cc(C)ccc1Cl | GAP50 | binding, surface plasmon resonance | – | 1:1 binding model | – | koff | 1.15 s⁻¹
CCOc1ccccc1C(=O)Nc1noc2ccccc12 | 3-oxoacyl-[acyl-carrier-protein] reductase FabG (fabG, Pseudomonas aeruginosa, UniProt O54438) | enzyme activity, inhibitor, NADPH fluorescence | – | reverse reaction, together with: 3-OH-decanoyl-NAC, NADP | – | Hill slope | 1.8
COc1ccc(CCNc2cc(=O)[nH]c(=O)[nH]2)cc1 | FFAR4 | agonist, β-arrestin recruitment | CHO cells | 10 µM | – | activation | 0%
N[C@@H](CCCCB(O)O)C(=O)O | Arginase (Schistosoma mansoni, UniProt Q6WVP6) | isothermal titration calorimetry | – | concentration not given | – | binding stoichiometry | 0.84 ± 0.01
CC(C)(C)CNc1cc(=O)[nH]c(=O)[nH]1 | FFAR4 | agonist, β-arrestin recruitment | CHO cells | 10 µM | – | activation | 1%
C=CC(=O)N1CCC(COCC(=O)N2CCN(c3nc(-c4cnc(N)nc4C(F)F)nc(N4CCOC[C@@H]4C)n3)CC2)CC1 | Receptor-type tyrosine-protein kinase FLT3 (FLT3, Homo sapiens, UniProt P36888, D835H) | KINOMEscan | – | 1 µM | – | remaining binding | 74%

For quick reference, copied from above:
SMILES | target or system | test | system | setting | scale | measurement | result
Cc1ccc(CCNc2cc(=O)[nH]c(=O)[nH]2)cc1 | FFAR4 | antagonist, β-arrestin recruitment | CHO cells | 10 µM | – | inhibition | 15 ± 6%
CCCCC(CC)CNc1cc(=O)[nH]c(=O)[nH]1 (racemic) | FFAR4 | β-arrestin recruitment | CHO | 10 µM | baseline: 30 µM TUG-891 | agonist effect | -1%
CC(C)NCCCC[C@H](NC(=O)[C@H]1CCC(=O)N[C@@H](Cc2ccccc2)C(=O)N[C@@H](Cc2ccc(O)cc2)C(=O)N[C@@H](CCCCNC(C)C)C(=O)N[C@H](CCCNC(=N)N)C(=O)N[C@@H](Cc2ccc3ccccc3c2)C(=O)NCC(=O)N1)C(N)=O | CXCR4 | – | U87.CD4.CXCR4 cells | 75 µM, 1 h, together with: [18F]AlF-NOTA-SC | – | total cellular uptake | 1.46 ± 0.02%
COc1ccc(CCNc2cc(=O)[nH]c(=O)[nH]2)cc1 | FFAR4 | agonist, β-arrestin recruitment | CHO cells | 10 µM | – | activation | 0%
CC[C@@H]1[C@H](F)C(=O)N[C@@H]1COc1nccc2cc(C(N)=O)c(OC)cc12 | Mitogen-activated protein kinase kinase kinase 11 (MAP3K11, Homo sapiens, UniProt Q16584) | ATP-site probe binding, ActivX profiling, measured: MLK3 | THP-1 cell lysate | 0.01 mM, Lys1 site | – | inhibition | 3.8%
CC(C)[C@@H]1CC[C@@H](C)C[C@H]1O | TRPM8 | 19F CPMG relaxation dispersion | – | concentration not given, 25 °C, together with: saturating ligand | – | exchange rate kex | 4000 ± 3000 s⁻¹
